Assay results pooled from the literature.
Lines come from different studies, so protocols differ.
UniProt P61981, sequence (whole entry, looked up): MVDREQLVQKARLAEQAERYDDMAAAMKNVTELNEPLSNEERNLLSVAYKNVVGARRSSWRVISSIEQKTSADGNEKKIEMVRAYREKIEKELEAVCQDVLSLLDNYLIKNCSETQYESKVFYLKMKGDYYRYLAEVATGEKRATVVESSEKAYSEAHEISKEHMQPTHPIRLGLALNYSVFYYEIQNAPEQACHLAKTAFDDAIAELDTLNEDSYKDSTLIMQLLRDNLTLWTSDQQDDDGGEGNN
UniProt Q04206, sequence (whole entry, looked up): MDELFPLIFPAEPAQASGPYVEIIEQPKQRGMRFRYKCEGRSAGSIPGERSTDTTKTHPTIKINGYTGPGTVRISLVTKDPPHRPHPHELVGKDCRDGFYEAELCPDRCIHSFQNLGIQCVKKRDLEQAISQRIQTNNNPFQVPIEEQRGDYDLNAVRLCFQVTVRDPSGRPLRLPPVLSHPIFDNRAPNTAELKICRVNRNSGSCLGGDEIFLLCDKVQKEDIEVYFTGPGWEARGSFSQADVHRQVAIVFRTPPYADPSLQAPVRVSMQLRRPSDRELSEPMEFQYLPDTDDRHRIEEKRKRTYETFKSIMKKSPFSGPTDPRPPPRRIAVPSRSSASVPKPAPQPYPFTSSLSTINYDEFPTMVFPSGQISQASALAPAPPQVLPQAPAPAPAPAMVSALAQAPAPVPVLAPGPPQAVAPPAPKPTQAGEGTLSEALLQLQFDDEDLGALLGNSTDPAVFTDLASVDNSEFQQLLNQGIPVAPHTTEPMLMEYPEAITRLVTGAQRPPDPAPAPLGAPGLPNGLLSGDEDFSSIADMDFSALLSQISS

`CC(=O)Nc1ccc(NC(=S)NC(=O)c2ccc(C(C)(C)C)cc2)cc1` has a viability of 54.4% (OCI-Ly1; 0.5 µM, 120 h).
`CNCc1ccc(-c2[nH]c3cc(F)cc4c3c2CCNC4=O)cc1` — result for “abdominal distension incidence”: 0% (patients; oral, 600 mg twice daily, grade 2).
For `N#Cc1ccc2c(c1)[C@H]1CCCN(C(=O)c3ccc4[nH]cnc4c3)[C@H]1C2`, the SHBG level was 35.9 nmol/L (human males; 10 mg, end of trial).
`Oc1cc(O)c2cc(O)c(-c3cc(O)c(O)c(O)c3)[o+]c2c1` has a viability of 196% (OCI-Ly1; 0.1 µM, 120 h).
Under “grade ≥3 event rate”, `O=C(Nc1ccc(OC(F)(F)Cl)cc1)c1cnc(N2CC[C@@H](O)C2)c(-c2ccn[nH]2)c1` is recorded as 4.4% (per treatment cycle, refers to: platelet decrease; human patients; oral, dose not given, 28 day cycle).
`C[C@@H]1CN(c2c(F)c(N)c3c(=O)c(C(=O)O)cn(C4CC4)c3c2F)C[C@H](C)N1` gave an amount permeated of 1.97 nmol (starch gel membrane permeability; Gram-negative envelope surrogate; 200 µM, 90 min, pH 7.4).
`C[C@@H](N)C1CCN(S(=O)(=O)c2cccc3cnccc23)CC1` — result for “participants with TEAEs”: 16.7% (healthy volunteers; 25 mg, fasted).
For `O=c1c(O)c(-c2cc(O)c(O)c(O)c2)oc2cc(O)cc(O)c12`, the plasma concentration was 0.576 µM (human plasma; median, both sexes).
`CO[C@H]1/C=C/O[C@@]2(C)Oc3c(C)c(O)c4c(O)c(c(/C=N/N5CCN(C)CC5)c(O)c4c3C2=O)NC(=O)/C(C)=C\C=C\[C@H](C)[C@H](O)[C@@H](C)[C@@H](O)[C@@H](C)[C@H](OC(C)=O)[C@@H]1C` gave an amount permeated of 1.68 nmol (starch gel membrane permeability; Gram-negative envelope surrogate; 200 µM, 45 min, pH 7.4).
For `CCc1ccc(C(=O)Oc2cc(C=O)ccc2[N+](=O)[O-])cc1`, the EC50 was greater than 1000 µM (YWHAG/RELA, phospho-Ser45 p65 peptide (Homo sapiens, UniProt P61981+Q04206); ternary complex formation, stabilizer, fluorescence anisotropy).
For `COc1cc(C[C@@H](CO)[C@H](CO)Cc2ccc(O)c(OC)c2)ccc1O`, the plasma concentration was 2.81 µM (human plasma; mean).
Under “treatment-emergent adverse events”, `O=C(COc1ccc(Cl)cc1)NC12CC(c3nnc([C@H]4C[C@@H](OC(F)(F)F)C4)o3)(C1)C2` is recorded as 5.6% (refers to: Presyncope; healthy humans, both sexes; oral, dose not given, single ascending dose, fasted; baseline: subjects).
Under “patients with cardiac disorders”, `CNC(=O)c1cc(Oc2ccc(NC(=O)Nc3cc(C(C)(C)C)nn3-c3ccc4ncccc4c3)c(F)c2)ccn1` is recorded as 7% (patients; oral, dose not given, cycles 1 and 2, Medium AUC subgroup).
Under “lung weight change”, `CCc1cc(C(=O)NC)c2nccc(N3CCc4c(cc(Cn5ccnc5)cc4-c4cn(C)nc4C(F)(F)F)C3=O)c2c1` is recorded as -5.55% (Sprague Dawley rat; oral, 100 mg/kg twice daily, 7 days; baseline: vehicle).
Under “subjects with adverse event”, `CN(C)C(=N)N=C(N)N` is recorded as 4.5% (refers to: nausea; healthy men; oral, dose not given, 8 days, treatment-emergent, crossover trial).
`C[C@@H]1CCO[C@H]2Cn3cc(C(=O)NCc4ccc(F)cc4F)c(=O)c(O)c3C(=O)N12` gave an AUC(0-24) of 37.2 µg·h/mL (population PK, post-hoc; children, 14 to <20 kg, plasma; oral, 15 mg dispersible tablet, steady state, geometric mean).
For `COc1ncc(-c2nc3c(n2C(C)C)[C@H](c2ccc(Cl)cc2)N(c2cc(Cl)cn(C)c2=O)C3=O)c(OC)n1`, “AUC(0-t) geometric mean” read 20.1 µg·h/mL (human patients, plasma; oral, 200 mg, 0-24 h, high-dose arm, cycle 2 day 1).
`C=CC(=O)Nc1cc(Nc2nccc(-c3cn(C)c4ccccc34)n2)c(OC)cc1N(C)CCN(C)C` gave a recovery of 95.3% (storage stability; human dried blood spot; 10 d, -80 °C, HQC level).
`O=C(O)C1=CC(=C(c2ccc(O)c(C(=O)O)c2)c2ccc(O)c(C(=O)O)c2)C=CC1=O`: “serum IL-12p40 level” “increased” (mouse B16-F10 tumour-bearing, serum; dose not given, monotherapy; baseline: vehicle).
`O=C1CCc2ccc(OCCCCN3CCN(c4cccc(Cl)c4Cl)CC3)cc2N1`: “adverse event incidence” 4.2% (refers to: Hypotension; genotyped patients, CYP2D6 normal metabolizers; dose not given, long-acting oral or depot).
`C=CC(=O)N1CCC(c2ccc(C(N)=O)c(-c3ccc(Oc4ccccc4)cc3)n2)CC1` — result for “incidence of serious cryptococcal meningitis”: 0.9% (CTCAE 4.03; patients with relapsed/refractory MCL; oral, dose not given).
Under serum ALT, `COc1cccc2c1c(O)c(C(=O)N(C)c1ccc(C(F)(F)F)cc1)c(=O)n2C` is recorded as “no effect” (mouse, CP model, serum; 0.154 µmol/kg, 4 weeks).
`COc1cc(C=O)ccc1O` gave a plasma concentration of 0.563 µM (human plasma; median, both sexes).

Excerpt of the above:
For `COc1cc(C[C@@H](CO)[C@H](CO)Cc2ccc(O)c(OC)c2)ccc1O`, the plasma concentration was 2.81 µM (human plasma; mean).
Under “treatment-emergent adverse events”, `O=C(COc1ccc(Cl)cc1)NC12CC(c3nnc([C@H]4C[C@@H](OC(F)(F)F)C4)o3)(C1)C2` is recorded as 5.6% (refers to: Presyncope; healthy humans, both sexes; oral, dose not given, single ascending dose, fasted; baseline: subjects).
